Published values pooled from the literature.
Each numbered part is a random draw from the data of one study; scales do not carry over between parts. Changes are numbered by the printed parent chain.

Series 1
Target: Histone acetyltransferase KAT6A, winged helix 2, GST fusion (KAT6A, Homo sapiens, UniProt Q92794, residues 85-181)
Method: protein binding microarray
Form: double-stranded DNA, one strand shown
Sample: in vitro
Concentration: not given
Setting: 8-mer, flanks averaged, mean of 2 arrays, mostly near background
Reference: not given
Direction: higher = stronger binding
Target sequence (chain): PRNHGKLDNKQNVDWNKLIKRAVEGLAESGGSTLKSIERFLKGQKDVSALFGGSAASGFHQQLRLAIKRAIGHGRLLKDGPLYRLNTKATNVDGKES
Oligonucleotide | E-score
AAGCGCTC | 0.0141
ATCTTGGA | 0.0875
CCTCCCAG | -0.00258
AAAGGTCT | -0.2
ATGTCAGA | -0.132
CTCTAACA | -0.094
TTCACGAA | 0.0284
ATACAGCC | -0.142
TCGAAGCA | 0.0138
ACATCGCG | -0.00726
AGCTAGAT | -0.0154
CCGGACGG | 0.15
AACTTATC | -0.0529
GAGCCATC | -0.0705
GGGTTGCA | -0.0283
ATAGCTGC | -0.0138
AGTAAAAA | 0.0297
CAATGTAC | -0.201
GGAGGTAA | -0.0521
AACATTCA | -0.303
CAAAATCG | -0.0377
ACGATCGT | -0.111
CCTCTGCG | -0.00246
AATCTTGA | -0.0708
AACGAACA | 0.0333

Series 2
Target: UBE2V2 UBC core domain (UniProt Q15819)
Method: yeast two-hybrid
Sample: yeast
Setting: mostly zero background
Reference: not given
Direction: higher = stronger interaction
B1: NHLRC1 RING domain (UniProt Q6VVB1); chain MREAEISLLECKVCFEKFGHRQQRRPRNLSCGHVVCLACVAALAHPRTLALECPFCRRACRGCDTSD
B2: TRIM47 RING domain (UniProt Q96LD4); chain MDGSGPFSCPICLEPLREPVTLPCGHNFCLACLGALWPHRGASGAGGPGGAARCPLCQEPFPDGLQLR
B3: TRIM34 RING domain (UniProt Q9BYJ4); chain ILLNVQEEVTCPICLELLTEPLSLDCGHSLCRACITVSNKEAVTSMGGKSSCPVCGISYSFEHLQA
B4: TRIM2 RING domain (UniProt Q9C040); chain VRQIDKQFLICSICLERYKNPKVLPCLHTFCERCLQNYIPAHSLTLSCPVCRQTSILPEKGV
B5: MARCHF2 RING domain (UniProt Q9P0N8); chain RLLSTVIRALDTPSDGPFCRICHEGANGECLLSPCGCTGTLGAVHKSCLEKWLSSSNTSYCELCHTEFAVEKRPRPLTEWL
B6: MDM2 RING domain (UniProt Q00987); chain TQDKEESVESSLPLNAIEPCVICQGRPKNGCIVHGKTGHLMACFTCAKKLKKRNKPCPVCRQPIQMIVLTYFP
Construct (chain): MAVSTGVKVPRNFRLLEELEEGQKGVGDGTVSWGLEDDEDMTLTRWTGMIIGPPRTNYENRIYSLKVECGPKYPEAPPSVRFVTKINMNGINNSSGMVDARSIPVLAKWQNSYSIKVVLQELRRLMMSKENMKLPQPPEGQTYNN
Molecule | lacZ reporter activity
B1 (NHLRC1 RING domain) | 0
EDVLSKDAGECAICLEELQQGDTIARLPCLCIYHKGCIDEWFEVNRSCPEHPSD (ZNRF2 RING domain (UniProt Q8NHG8)) | 0
B2 (TRIM47 RING domain) | 0
B3 (TRIM34 RING domain) | 0
FLSKVEETFQCICCQELVFRPITTVCQHNVCKDCLDRSFRAQVFSCPACRYDLGRSYAMQ (UHRF1 RING domain (UniProt Q96T88)) | 0
MEEMEEELKCPVCGSFYREPIILPCSHNLCQACARNILVQTPESESPQSHRAAGSGVSDY (TRIM9 RING domain (UniProt Q9C026)) | 0
B4 (TRIM2 RING domain) | 0
B5 (MARCHF2 RING domain) | 0
B6 (MDM2 RING domain) | 0
VPADASPDSKCPICLDRFDNVSYLDRCLHKFCFRCVQEWSKNKAECPLCKQPFDSIFHSV (TOPORS RING domain (UniProt Q9NS56)) | 0

Series 3
Target: Phosphate system positive regulatory protein PHO4, full length, GST-tagged (PHO4, Saccharomyces cerevisiae, UniProt P07270, residues 1-312)
Method: competition protein-binding microarray
Form: double-stranded DNA, one strand shown
Sample: in vitro
Concentration: 2 µM
Setting: whole 60-bp probe, lowest competitor level
With: Cbf1 competitor, 0.05 µM
Direction: higher = stronger binding
All sequences stand within: … GTCTTGATTCGCTTGACGCTGCTG
Construct (chain): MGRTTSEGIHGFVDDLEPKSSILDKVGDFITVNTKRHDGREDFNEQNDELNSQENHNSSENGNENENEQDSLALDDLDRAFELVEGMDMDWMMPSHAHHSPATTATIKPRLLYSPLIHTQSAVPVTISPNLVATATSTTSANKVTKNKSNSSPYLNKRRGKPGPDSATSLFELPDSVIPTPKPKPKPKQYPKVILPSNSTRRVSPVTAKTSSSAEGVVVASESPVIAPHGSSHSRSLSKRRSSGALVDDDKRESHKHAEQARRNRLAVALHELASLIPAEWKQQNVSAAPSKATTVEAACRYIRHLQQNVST
Oligonucleotide | fluorescence intensity [a.u.]
CTGTTACTTACACTGAACACGCCAAGAGAAAGACTG | 6440
CGTCACTAGTACTATCACCTGAAAACATGCTTCCAA | 5900
TGTTTCTTCTGAAAGCACGTGTGAAAAGTTTTCCTG | 19900
CGTCCTAGTGATTGCCTTGTGGGTGCCATGAGGAAG | 8740
GAAGAAAATCGCTCCCGCGTGTCCACTGGACTTTGC | 8690
CGGGGTTAAGTTTGCTTTGTGGGTGGCTTGCAGCAG | 4560
AAAGCGGTAATTTGGTCAGTGGGTGCAGATATCTAT | 4390
TGAAATAGATATTAGCACGTGTCGGGGAGAGAAGAA | 17400
GTCTTGTCTCATTGTCACCTTACTTTCCCCACTTCA | 4120
CTAACGAAGGTTTGTAGGGTGGGTGACAAGCCAAGT | 3770
ATCCAATAAGAGGGGCGCGTGTCGGCAGAGATAAGC | 10900
CTTCAGTCCTCAAGGGGCGTGCTTTTTGCTCTTGCT | 10100
TTACCTTGGCGCCATCACGTGGCAAAATGGAAGCAA | 18500
CGGGGTTAAGTTTGTCACATGACTTGCTTGCAGCAG | 6080
AAGGGCCCTTGCCTACACGTGAATATGTCTATTTTA | 11700
GCATACACATACACATTCGTGCAAACATTCATTTAT | 8090
TGATTGTCAGTCGTTCGCGTGGGTACAACTTTGGTC | 7690
TCCATTCTCTACGGCCACGCTGAAACACGAATCATC | 8550

Series 4
Target: CCNB3, cyclin fold, Cln2 fusion (human)
Method: yeast growth competition, sequencing
Sample: yeast
Setting: weak parent motif
Reference: not given
Direction: higher = stronger binding
Starting sequence: CDKN1A docking peptide (human); SKACRRLFGPVDS; partner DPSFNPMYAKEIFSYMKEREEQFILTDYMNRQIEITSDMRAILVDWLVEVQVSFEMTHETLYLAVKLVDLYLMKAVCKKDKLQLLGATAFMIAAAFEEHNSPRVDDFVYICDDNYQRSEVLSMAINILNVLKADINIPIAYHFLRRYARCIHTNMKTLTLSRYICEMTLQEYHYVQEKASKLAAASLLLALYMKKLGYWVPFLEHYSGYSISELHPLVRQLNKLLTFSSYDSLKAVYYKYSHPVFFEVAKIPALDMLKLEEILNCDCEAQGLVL
Variant | normalised enrichment score
SKACRRLEGPVDS [F8E] | -0.498
SKKCRRLFGPVDS [A3K] | 0.297
SKACRVLFGPVDS [R6V] | 0.818
SKACRRLFGPVRS [D12R] | 0.293
SKACRRHFGPVDS [L7H] | 0.21
SKAQRRLFGPVDS [C4Q] | 0.443
SKACRRLFGPEDS [V11E] | 0.446
SKACRRLFGPVDA [S13A] | 0.75
SKAYRRLFGPVDS [C4Y] | -0.0164
SKACRRLQGPVDS [F8Q] | -0.189
SKACRRLFGIVDS [P10I] | 0.608
SKACPRLFGPVDS [R5P] | -0.0667
SKACRRLFGPQDS [V11Q] | 0.66
SKACRRLFRPVDS [G9R] | 0.323
SKACERLFGPVDS [R5E] | -0.209
SWACRRLFGPVDS [K2W] | 0.408
SKACRRLKGPVDS [F8K] | 0.123

Series 5
Target: RNA binding protein fox-1 homolog 2, RRM domain, GST-SBP tag (RBFOX2, Homo sapiens, UniProt O43251-10, residues 100-194)
Method: RNA Bind-n-Seq
Form: RNA
Sample: in vitro
Concentration: 365 nM
Setting: natural RNA segment, single round, ends assumed
Reference: no-protein control
Direction: higher = stronger binding
All sequences stand within: GGGAGUUCUACAGUCCGACGAUC … UGGAAUUCUCGGGUGCCAA
Residues (chain): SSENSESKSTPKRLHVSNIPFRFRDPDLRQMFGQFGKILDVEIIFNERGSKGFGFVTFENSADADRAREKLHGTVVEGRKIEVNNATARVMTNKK
Oligonucleotide | RBNS enrichment (R)
UCAGAUUAUUCUCAAAGAACACAGUAGCACCUAAAUCUGUUUUCAAUUGGGCUUAAAAAUUGACAUGCAAUCUCUUAAGUUUUUUGUUCAGCUACUUCACACUGAGUACC | 1.46
GUUAGUCGCUAACUUAGUAAGUGCUUUUCUUAUAGAACCCCUUCUGACUGAGCAAUAUGCCUCCUUGUAUUAUAAAAUCUUUCUGAUAAUGCAUUAGAAGGUUUUUUUGU | 0.626
AACAGGAAGCAGCUGGGCUUUUAAGCAGAUCUGUCAGAAACCACAAGCUAUGCCAAGGUCAGAGCCACGGGCAUCUAGAAGGCAUCCACUCUGCUCAAGAGACGGAUGCA | 0.363
GCAAGUUGUGAGGAAAGGUCCUCAGAACAUGGGAUUCCACAUGAGGAAUCCUUAGGCUGCCAGGAAGCCAGAGGGGUUUAGAGGUGCUCAGCUUUGAGCCCCAGUAUGCA | 3.68
GACAGUCCUUUUCUUCUGAAGUAAAUAUACAUAUAUAAAUAAAUGUAUAAAUACUGCUUUGUAUCUGACUUGCCUCUGACAUCUUCUUGAGAUUGUUCUGGGGGGAGCCA | 0.414
CCUUGGGGUCCGGGAUCCAGCAUCAGGGUCUCUAUACCCCAGGAUCCUCCAUGCCACAUGGUCACUGCUCUCCUCAGGGACCAGGACAAGGUGCUGCUGCUUGCCCAAAU | 0.968
UUUAUAGCUGUCUUUGCAUCUUUGAUAAAACUUCCACUUGAAUUUGGCACUGAUAAUAAUUAUUGCUUAUGAAAGUUUGUGAAUUAAGUUCUUUAUAAAGGGUAAAAAGC | 1.83
UCCCACUUGAAUGUGACACUGAUAAUAAUUAUGCUGAUUUUUAGCAUCUCUUAUAGGAAUCAAAGUUUAUUAAAGUUACAUAGAGGAUUGAAAAAUGUAUAUCACUCAAU | 55.4
CAGUCAGCCCAGGUCUCUAGAGUGUCCAGCAGAGGAUGGAGCCCUCGGGAUGUUUCAGCUCACACAUCCUUGAGUGACUUCCCAUAUGUGUGUGGGGCUGAAGCGGCUUC | 0.61
AUAUGGAAAAGGAAAAAAAUAUCUCACAAGUUCUUUGGGAACUUGUUUCAAGCCAAAAACUCUCAAGACAGAAAAUUGCACCUCAGCUGGGUUGAUUUCAAAAUGCCAGC | 0.899
AAACCUAUAGAAGUUAGCAUUACUGCUAAAAUCCCAGAUGUUGUAGGACUGUACUUUUGUAGAGUUUAGACAGAGCAUCAAUCCCUUCUCCCCGCGAGUGCAGUCGGAUG | 0.506
ACAGAGACCACCUACCCACCACCUUCCCAGGUCACCUGCCUGGUCCCUGAAAGAAAGCAUUUGUGUGGGCAAUCCCAACAUGAAAUGUAGACAGCGUGAAUACGGACAGG | 0.298

Excerpt of the above (series 1):
Oligonucleotide | E-score
AAGCGCTC | 0.0141
ATCTTGGA | 0.0875
CCTCCCAG | -0.00258
AAAGGTCT | -0.2
ATGTCAGA | -0.132
CTCTAACA | -0.094
TTCACGAA | 0.0284
ATACAGCC | -0.142
TCGAAGCA | 0.0138
